Assay results from different studies.
Compare with care: the assays were run in different laboratories.
Method: steady-state kinetics
B1: CHST10 (Homo sapiens, UniProt O43529); chain TFKDPDVYSAKQEFLFLTTMPEVRKLPEEKHIPEELKPTGKELPDSQLVQPLVYMERLELIRNVCRDDALKNLSHTPVSKFVLDRIFVCDKHKILFCQTPKVGNTQWKKVLIVLNGAFSSIEEIPENVVHDHEKNGLPRLSSFSDAEIQKRLKTYFKFFIVRDPFERLISAFKDKFVHNPRFEPWYRHEIAPGIIRKYRRNRTETRGIQFEDFVRYLGDPNHRWLDLQFGDHIIHWVTYVELCAPCEIMYSVIGHHETLEDDAPYILKEAGIDHLVSYPTIPPGITVYNRTKVEHYFLGISKRDIRRLYARFEGDFKLFGYQKPDFLLN
B2: enzyme E217L/L163H/N249W (Thermobifida fusca, UniProt Q47RK4); chain MTDVYILDAVRTPFGRYGGALSGIRPDDLAAHVLRALAERSPGLDPAAVDDVFFGDANGAGEDNRNVARMAALLAGWPTSVPGVTLNRLCGSGMESVIAANRAIAVGDASLAVAGGVESMSRAPWVLPKPAQGFPTGHETLYSTTLGWRMVNPAMPEQWTVSHGESTEQVAATYGISRAEQDAFALRSHERAARAWAEGVFDAEITQIPGAELERDLSIRETSAEKLAALKPAFRPDGTITAGNASPLWDGAAALLIGDAAAAERVGREPLARIVSRGVAAVDPDVFGIGPVQAAEIALRRAGIGWDDLSVVELNEAFAAQSLACLKLWPDLDPEIVNPNGGAIAIGHPLGASGARIVGTLAHELHRRGGGWGLAAICIGVGQGLAVVLHR
B3: enzyme (Streptomyces albidoflavus, UniProt K0J3J2); chain AAGGYVALGDSYSSGVGAGSYDSGSGDCRRTPKAYPALWAAANSPASFDFVACSGAVTSDVLNKQMGPLNSSTSLVSLTIGGNDAGFADVMTTCVLQSEANCIARVNTAKAFVESTLPGRLDSVYSQVRAKAPSANVVVLGYPRFYKLNGTCVAGLTEGERTAINGAADLLNSVISKRAADHGYAYGDIAAAFTGHEICSGDSWLHSVKWTGINDSYHPTAAGQSGGYLPVLNSKA
B4: STS (Homo sapiens, UniProt P08842); chain HAASRPNIILVMADDLGIGDPGCYGNKTIRTPNIDRLASGGVKLTQHLAASPLCTPSRAAFMTGRYPVRSGMASWSRTGVFLFTASSGGLPTDEITFAKLLKDQGYSTALIGKWHLGMSCHSKTDFCHHPLHHGFNYFYGISLTNLRDCKPGEGSVFTTGFKRLVFLPLQIVGVTLLTLAALNCLGLLHVPLGVFFSLLFLAALILTLFLGFLHYFRPLNCFMMRNYEIIQQPMSYDNLTQRLTVEAAQFIQRNTETPFLLVLSYLHVHTALFSSKDFAGKSQHGVYGDAVEEMDWSVGQILNLLDELRLANDTLIYFTSDQGAHVEEVSSKGEIHGGSNGIYKGGKANNWEGGIRVPGILRWPRVIQAGQKIDEPTSNMDIFPTVAKLAGAPLPEDRIIDGRDLMPLLEGKSQRSDHEFLFHYCNAYLNAVRWHPQNSTSIWKAFFFTPNFNPVGSNGCFATHVCFCFGSYVTHHDPPLLFDISKDPRERNPLTPASEPRFYEILKVMQEAADRHTQTLPEVPDQFSWNNFLWKPWLQLCCPSTGLSCQCDREKQDKRLSR
B5: protein A329L (Streptomyces toyocaensis, UniProt Q8KLK7); chain MTTVLPPLEDTDGLWAALTEAAASVEKLLATLPEHGARSSAERAEIAAAHDAARALRVRFLDTHADAVYDRLTDHRRVHLRLAELVEAAATAFPGLVPTQQQLAVERSLPQAAKEGHEIDQGIFLRAVLRSPLAGPHLLDAMLRPTPRALELLPEFVRTGEVEMEAVHLERRDGVARLTMCRDDRLNAEDGQQVDDMETAVDLALLDPGVRVGLLRGGVMSHPRYRGKRVFSAGINLKYLSQGGISLVDFLMRRELGYIHKLVRGVLTNDDRPGWWHSPRIEKPWVAAVDGFAIGGGAQLLLVFDRVLASSDAYFSLPAAKEGIIPGALNLRLGRFAGPRVSRQVILEGRRIWAKEPEARLLVDEVVEPDELDAAIERSLTRLDGDAVLANRRMLNLADESPDGFRAYMAEFALMQALRLYGHDVIDKVGRFGGRPPA
B6: CBCAS (Cannabis sativa, UniProt Q33DQ2); chain NPQENFLKCFSEYIPNNPANPKFIYTQHDQLYMSVLNSTIQNLRFTSDTTPKPLVIVTPSNVSHIQASILCSKKVGLQIRTRSGGHDAEGLSYISQVPFAIVDLRNMHTVKVDIHSQTAWVEAGATLGEVYYWINEMNENFSFPGGYCPTVGVGGHFSGGGYGALMRNYGLAADNIIDAHLVNVDGKVLDRKSMGEDLFWAIRGGGGENFGIIAAWKIKLVVVPSKATIFSVKKNMEIHGLVKLFNKWQNIAYKYDKDLMLTTHFRTRNITDNHGKNKTTVHGYFSSIFLGGVDSLVDLMNKSFPELGIKKTDCKELSWIDTTIFYSGVVNYNTANFKKEILLDRSAGKKTAFSIKLDYVKKLIPETAMVKILEKLYEEEVGVGMYVLYPYGGIMDEISESAIPFPHRAGIMYELWYTATWEKQEDNEKHINWVRSVYNFTTPYVSQNPRLAYLNYRDLDLGKTNPESPNNYTQARIWGEKYFGKNFNRLVKVKTKADPNNFFRNEQSIPPLPPHHH
B7: enzyme H323A (Acetivibrio thermocellus, UniProt A3DJ38); chain MKLTIPELSLVVLIGSSGSGKSTFAKKHFKPTEVISSDFCRGLVSDDENDQTVTGAAFDVLHYIVSKRLQLGKLTVVDATNVQESARKPLIEIAKDYHCFPVAVVFNLPEKVCQERNKNRTDRQVEEYVIRKHTQQLKKSIKGLQREGFRYVYILNSPEEVEEVVFERQPLWNNKKDEHGPFDIIGDIHGCYDELKMLLEKLGYLIEEVEGGVGSGKYRVTHPEGRKVLFLGDLVDRGPKITEVLKLVMGMVKSGIALCVPGNHDVKLLRKLNGRDVQITHGLDRTLEQLAKEPQEFIEEVKAFIDGLVSHYVLDDGKLVVAAAGMKEEFQGRGSGKVREFALYGETTGETDEYGLPVRYDWASDYRGKALVVYGHTPQAEVLKVNNTINIDTGCVFGGKLTAYRYPEREIVDVKALKTYYEPAKPFLPKEDMAERFEARTDNDILDINDVLGKKIITTRLMSSITIHEENSIAALEVMSRFAADPHWLIYLPPTMSPCETSKKEGMLEHPIEAFEYFRTRGVGKVVCEQKHMGSRAVVIVCKDSQVAEKRFGVLDGTAGICYTRTGRHFFDDMQLEAELIDRVRKVLDKSGFWGDFNTDWVCLDCELMPWSAKAQKLLEEQYSAVGISGRVVLDEAVKLLKQASLNKTVSFDVSRQTSGKNADINELLQRFTERSEMMQKYVEAYRKYCWPVNSIDDLKLAPFHILATEGKVHSDKNHIWHMDTIAKYCTQDDSLIMATNHILVDVTDAESVDKGIKWWEDLTASGGEGMVVKPYDFIVKNGRELLQPAVKCRGREYLRIIYGPEYTMDENIERLRNRAVGKKRSLALREFSLGMEALERFVRNEPLYRVHECVFGVLALESEPVDPRL
B8: ATP8A1/CDC50A (Homo sapiens); chain MPTMRRTVSEIRSRAEGYEKTDDVSEKTSLADQEEVRTIFINQPQLTKFCNNHVSTAKYNIITFLPRFLYSQFRRAANSFFLFIALLQQIPDVSPTGRYTTLVPLLFILAVAAIKEIIEDIKRHKADNAVNKKQTQVLRNGAWEIVHWEKVAVGEIVKVTNGEHLPADLISLSSSEPQAMCYIETSNLDGETNLKIRQGLPATSDIKDVDSLMRISGRIECESPNRHLYDFVGNIRLDGHGTVPLGADQILLRGAQLRNTQWVHGIVVYTGHDTKLMQNSTSPPLKLSNVERITNVQILILFCILIAMSLVCSVGSAIWNRRHSGKDWYLNLNYGGASNFGLNFLTFIILFNNLIPISLLVTLEVVKFTQAYFINWDLDMHYEPTDTAAMARTSNLNEELGQVKYIFSDKTGTLTCNVMQFKKCTIAGVAYGHVPEPEDYGCSPDEWQNSQFGDEKTFSDSSLLENLQNNHPTAPIICEFLTMMAVCHTAVPEREGDKIIYQAASPDEGALVRAAKQLNFVFTGRTPDSVIIDSLGQEERYELLNVLEFTSARKRMSVIVRTPSGKLRLYCKGADTVIYDRLAETSKYKEITLKHLEQFATEGLRTLCFAVAEISESDFQEWRAVYQRASTSVQNRLLKLEESYELIEKNLQLLGATAIEDKLQDQVPETIETLMKADIKIWILTGDKQETAINIGHSCKLLKKNMGMIVINEGSLDGTRETLSRHCTTLGDALRKENDFALIIDGKTLKYALTFGVRQYFLDLALSCKAVICCRVSPLQKSEVVEMVKKQVKVVTLAIGDGANDVSMIQTAHVGVGISGNEGLQAANSSDYSIAQFKYLKNLLMIHGAWNYNRVSKCILYCFYKNIVLYIIEIWFAFVNGFSGQILFERWCIGLYNVMFTAMPPLTLGIFERSCRKENMLKYPELYKTSQNALDFNTKVFWVHCLNGLFHSVILFWFPLKALQYGTAFGNGKTSDYLLLGNFVYTFVVITVCLKAGLETSYWTWFSHIAIWGSIALWVVFFGIYSSLWPAIPMAPDMSGEAAMLFSSGVFWMGLLFIPVASLLLDVVYKVIKRTAFKTLVDEVQELEAKSQDPGAVVLGKSLTERAQLLKNVFKKNHVNLYRSESLQQNLLHGYAFSQDENGIVSQSEVIRAYDTTKQRPDEW
B9: enzyme (Papaver somniferum, UniProt Q9SQ68); chain MESNGVPMITLSSGIRMPALGMGTAETMVKGTEREKLAFLKAIEVGYRHFDTAAAYQSEECLGEAIAEALQLGLIKSRDELFITSKLWCADAHADLVLPALQNSLRNLKLDYLDLYLIHHPVSLKPGKFVNEIPKDHILPMDYKSVWAAMEECQTLGFTRAIGVCNFSCKKLQELMAAAKIPPVVNQVEMSPTLHQKNLREYCKANNIMITAHSVLGAICAPWGSNAVMDSKVLHQIAVARGKSVAQVSMRWVYQQGASLVVKSFNEGRMKENLKIFDWELTAENMEKISEIPQSRTSSADFLLSPTGPFKTEEEFWDEKD
UniProt P05181, sequence (whole entry, looked up): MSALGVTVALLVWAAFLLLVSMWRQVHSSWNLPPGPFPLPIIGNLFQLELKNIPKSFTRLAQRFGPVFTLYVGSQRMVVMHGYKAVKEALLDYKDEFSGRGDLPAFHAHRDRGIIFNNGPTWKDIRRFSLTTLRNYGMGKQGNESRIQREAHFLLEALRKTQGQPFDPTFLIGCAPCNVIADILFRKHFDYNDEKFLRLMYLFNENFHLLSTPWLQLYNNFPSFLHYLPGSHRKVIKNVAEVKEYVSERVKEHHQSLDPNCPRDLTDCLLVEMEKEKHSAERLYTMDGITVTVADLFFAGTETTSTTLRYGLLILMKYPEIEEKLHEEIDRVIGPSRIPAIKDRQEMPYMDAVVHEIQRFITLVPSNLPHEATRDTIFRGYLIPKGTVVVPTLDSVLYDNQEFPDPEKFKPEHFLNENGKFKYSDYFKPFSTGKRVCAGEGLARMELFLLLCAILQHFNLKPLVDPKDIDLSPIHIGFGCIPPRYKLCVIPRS

For `B1 (CHST10)`, the Km was 210 µM ([H][C@@]12CC=C3C[C@@H](O[C@@H]4O[C@H](C(=O)O)[C@@H](O)[C@H](O)[C@H]4O)CC[C@]3(C)[C@@]1([H])CC[C@]1(C)C(=O)CC[C@@]21[H]; pH 7.2, 37 °C).
`NADP-dependent secondary alcohol dehydrogenase (Trichomonas vaginalis, UniProt A2DJ40)` has a Km of 169 µM (CC(C)=O; pH 6.25, 37 °C, with: NADPH 200 µM).
`B2 (enzyme E217L/L163H/N249W)` gave a Km of 2180 µM (CC(=O)SCCNC(=O)CCNC(=O)[C@H](O)C(C)(C)COP(=O)(O)OP(=O)(O)OC[C@H]1O[C@@H](n2cnc3c(N)ncnc32)[C@H](O)[C@@H]1OP(=O)(O)O; pH 7.4, 37 °C).
`B3 (enzyme)` gave a Km of 2380 µM (CCCCCCCC/C=C\CCCCCCCC(=O)O[C@H](COC(=O)CCCCCCCCCCCCCCC)COP(=O)(O)O; pH 7.2, 50 °C, apparent).
For `B4 (STS)`, the Km was 2.85 µM ([H][C@@]12CC=C3C[C@@H](OS(=O)(=O)O)CC[C@]3(C)[C@@]1([H])CC[C@]1(C)C(=O)CC[C@@]21[H]; pH 7, 37 °C, not purified).
The Km of `pvdF (Pseudomonas aeruginosa, UniProt Q9I184)` is reported as 60 µM (Nc1nc(O)c2cc(CN(C=O)c3ccc(C(=O)N[C@@H](CCC(=O)O)C(=O)O)cc3)ccc2n1; pH 7.4, 25 °C).
For `B5 (protein A329L)`, the Km was 6.6 µM (CC(C)(COP(=O)(O)OP(=O)(O)OC[C@H]1O[C@@H](n2cnc3c(N)ncnc32)[C@H](O)[C@@H]1OP(=O)(O)O)[C@@H](O)C(=O)NCCC(=O)NCCSC(=O)Cc1cc(O)cc(O)c1; pH 7.5, 24 °C, with: O2).
`enzyme (Streptococcus pyogenes, UniProt Q5XDW3)` gave a Km of 157 µM (NC(=O)c1ccc[n+]([C@@H]2O[C@H](COP(=O)(O)OP(=O)(O)OC[C@H]3O[C@@H](n4cnc5c(N)ncnc54)[C@H](O)[C@@H]3O)[C@@H](O)[C@H]2O)c1; pH 8.6).
`CYP2E1 (Homo sapiens, UniProt P05181)` gave a Km of 56.1 µM (C=Cc1ccccc1; pH 7.4, 37 °C).
The Km of `azu N30H/N36H/Q34H (Pseudomonas aeruginosa)` is reported as 35000 µM (O=NO; pH 6.35).
`B6 (CBCAS)` gave a Km of 9.3 µM (CCCCCc1cc(O)c(C/C=C(\C)CCC=C(C)C)c(O)c1C(=O)O; pH 5.5, 40 °C).
With `B7 (enzyme H323A)` the Km was 32000 µM (Nc1ncnc2c1ncn2[C@@H]1O[C@H](CO)[C@H]2OP(=O)(O)O[C@H]21; pH 7.5, 45 °C).
`B8 (ATP8A1/CDC50A)` has a Km of 59.1 µM (CCCCCCCC/C=C\CCCCCCCC(=O)OC[C@H](COP(=O)(O)OC[C@H](N)C(=O)O)OC(=O)CCCCCCC/C=C\CCCCCCCC; pH 7.5, 37 °C, with: ATP 5 mM, MgCl2 12.5 mM, PC).
The Km of `ω-transaminase A60V/E38Q/I154V/M128F/P9A/S87N/W58G (Pseudomonas jessenii)` is reported as 1600 µM (O=C1CCc2ccccc21; pH 8, 56 °C, apparent, with: isopropylamine 1 M, PLP 0.05 mM).
With `B9 (enzyme)` the Km was 49.9 µM (COc1ccc2c3c1O[C@H]1[C@@H](O)C=C[C@H]4[C@@H](C2)N(C)CC[C@@]341).
`nitrilase (Rhodococcus rhodochrous, UniProt A4LA85)` gave a Km of 1850 µM (Cc1cccc(C#N)c1; pH 7.5, 25 °C).

Some of these lines once more:
For `B1 (CHST10)`, the Km was 210 µM ([H][C@@]12CC=C3C[C@@H](O[C@@H]4O[C@H](C(=O)O)[C@@H](O)[C@H](O)[C@H]4O)CC[C@]3(C)[C@@]1([H])CC[C@]1(C)C(=O)CC[C@@]21[H]; pH 7.2, 37 °C).
